Assay results pooled from the literature.
Numbers after ± are the reported error.

SMILES = COc1ccc(NC(=O)CSc2nnnn2C)cc1; system = aqueous buffer; conditions = pH 7.4; solubility = 22.2 µg/mL
SMILES = COc1cc(OC)c2c(=O)cc(-c3ccccc3)oc2c1; assay = HPLC; system = ethanol:butylene glycol 0:100; solubility = 12300 ± 76 ppm
SMILES = COc1cccc2c(NCc3ccccc3)nc(-n3c(N)nc4ccccc43)nc12; system = aqueous buffer; conditions = pH 5.0; solubility = 0.06 µg/mL
SMILES = Clc1nc(SCc2ccccc2)c2[nH]cnc2n1; assay = UV absorbance; system = culture medium; conditions = stock diluted to 0.20 mM; solubility = 40 µM
SMILES = CN(Cc1ccc(C(C)(C)C)cc1)Cc1cccc2ccccc12; system = PBS; conditions = 2 h, pH 7.4, 25 °C; solubility = 10 µM
SMILES = Cc1cccc([C@H]2N[C@@H](c3ccc(Cl)c(Cl)c3)CO[C@@H]2C)c1; assay = shake-flask, LC-HRMS; system = aqueous buffer; conditions = 16 h, pH 6.8; solubility = < 4 µM
SMILES = NC[C@H](NC(=O)[C@@H](CCCCNC(=O)CN1CCN(CC(=O)O)CCN(CC(=O)O)CCN(CC(=O)O)CC1)NC(=O)[C@@H](Cc1c[nH]c2ccccc12)NC(=O)OCC1c2ccccc2-c2ccccc21)C(N)=O; system = aqueous buffer; solubility = ≥ 5000 µM
SMILES = CCn1c(SCC(=O)Nc2ccccc2OC)nnc1-c1ccco1; system = aqueous buffer; conditions = pH 7.4; solubility = 15.6 µg/mL
SMILES = Cc1cc(/C=C/C#N)cc(C)c1Nc1ccnc(Nc2ccc(C#N)cc2)n1; system = Labrasol ALF; conditions = 24 h, 37 °C; solubility = 9020 ± 290 µg/mL
SMILES = CCOC1=CC(c2ccc[nH]2)=N/C1=C\c1cc(Cc2ccc(Cl)cc2)c(C)[nH]1.Cl; system = potassium phosphate buffer; conditions = 1.5 h, pH 7.4, room temperature; solubility = < 3.13 µM
SMILES = CCOC(=O)N1C[C@@H](c2ccc(Cl)cc2)N[C@@H](c2cc(Cl)cc(Cl)c2)C1; assay = shake-flask, LC-HRMS; system = aqueous buffer; conditions = 16 h, pH 6.8; solubility = < 4 µM
SMILES = O=C(Cc1ccc(OC(F)(F)F)cc1)Nc1cc(C2CC2)[nH]n1; system = aqueous buffer; conditions = pH 7.4; solubility = < 3.49 µg/mL
SMILES = O=C(CNc1ccc(OC(F)(F)F)cc1)NC12CC3CC(CC(C3)C1)C2; conditions = 6 h, pH 7.4; solubility = < 10 µg/mL
SMILES = CCOC(=O)N1C[C@@H](c2ccccc2O)N[C@@H](c2ccc(C(C)(C)C)cc2)C1; assay = shake-flask, LC-HRMS; system = aqueous buffer; conditions = 16 h, pH 6.8; solubility = < 4 µM
SMILES = CC(=O)Nc1ccc(Nc2ncnc(NCCC(=O)OC(C)(C)C)n2)cc1; conditions = 3 (unit not given); solubility = 193 µM
SMILES = NS(=O)(=O)c1ccc(NN=C2C(=O)Nc3ccc4[nH]nnc4c32)cc1; system = aqueous buffer; conditions = pH 7.4; solubility = < 1.53 µg/mL
SMILES = CCOC(=O)N1C[C@@H](c2ccc(N3CCCC3)cc2)N[C@@H](c2ccc(-c3ccccc3)cc2)C1; assay = shake-flask, LC-HRMS; system = aqueous buffer; conditions = 16 h, pH 6.8; solubility = < 4 µM
SMILES = CC(C)COC(=O)c1ccc2c(c1)/C(=N/Nc1ccc(S(N)(=O)=O)cc1)C(=O)N2; system = aqueous buffer; conditions = pH 7.4; solubility = < 2.97 µg/mL
SMILES = c1cncc(-c2cccc(Nc3nccc(NC4CCOCC4)n3)c2)c1; system = citrate phosphate-buffered saline; conditions = 18 h, pH 7.4, 1% DMSO; solubility = 64.1 ± 3.1 µM
SMILES = Clc1cc(Cl)cc([C@@H]2COC[C@H](C3CCCC3)N2)c1; assay = shake-flask, LC-HRMS; system = aqueous buffer; conditions = 16 h, pH 6.8; solubility = < 4 µM
SMILES = N=C(N)NC(=O)c1nc(Cl)c(NCc2cc(Cl)cc(Cl)c2)nc1N; system = aqueous buffer; conditions = pH 7.4; solubility = < 1.01 µg/mL
SMILES = Clc1ccc([C@H]2COC[C@H](c3cccc(Br)c3)N2)cc1; assay = shake-flask, LC-HRMS; system = aqueous buffer; conditions = 16 h, pH 6.8; solubility = < 4 µM
SMILES = CC(=O)Nc1cccc(-c2nnc(SCC(=O)Nc3ccc(C(C)=O)cc3)n2C)c1; system = aqueous buffer; conditions = pH 7.4; solubility = 2.97 µg/mL
SMILES = Cn1cc([C@H]2COC[C@@H](c3ccc(-c4ccccn4)cc3)N2)cn1; assay = shake-flask, LC-HRMS; system = aqueous buffer; conditions = 16 h, pH 6.8; solubility = > 750 µM
SMILES = O=S(=O)(c1ccc(-c2ccc3nccc(Nc4ccccc4)c3c2)cc1)N1CCOCC1; assay = thermodynamic; system = aqueous medium; solubility = 12 µM

For quick reference, copied from above:
SMILES = NC[C@H](NC(=O)[C@@H](CCCCNC(=O)CN1CCN(CC(=O)O)CCN(CC(=O)O)CCN(CC(=O)O)CC1)NC(=O)[C@@H](Cc1c[nH]c2ccccc12)NC(=O)OCC1c2ccccc2-c2ccccc21)C(N)=O; system = aqueous buffer; solubility = ≥ 5000 µM
SMILES = CCn1c(SCC(=O)Nc2ccccc2OC)nnc1-c1ccco1; system = aqueous buffer; conditions = pH 7.4; solubility = 15.6 µg/mL
SMILES = Cc1cc(/C=C/C#N)cc(C)c1Nc1ccnc(Nc2ccc(C#N)cc2)n1; system = Labrasol ALF; conditions = 24 h, 37 °C; solubility = 9020 ± 290 µg/mL
